Assay results of several laboratories.
Protocols differ between the studies behind these lines.

| Compound | system | setting | measurement | result |
| --- | --- | --- | --- | --- |
| COC(=O)N[C@H](C(=O)N1CCC[C@H]1c1nc(-c2ccc3c(c2)O[C@@H](c2ccccc2)n2c-3cc3cc(-c4c[nH]c([C@@H]5CCCN5C(=O)[C@@H](NC(=O)OC)C(C)C)n4)ccc32)c[nH]1)C(C)C | human K2EDTA plasma | -20 °C | plasma stability | ≥ 21 months |
| OCCc1ccc(O)c(O)c1 | human plasma | mean | plasma concentration | 0.029 µM |
| CC(=O)N[C@@H](C)C(=O)N[C@H]1CSSC[C@@H](C(=O)NCC(=O)N[C@@H](CO)C(=O)NCC(=O)N[C@@H](CO)C(=O)N[C@@H](CC(=O)O)C(=O)N[C@@H](Cc2ccc(O)cc2)C(=O)N[C@@H](CCCCN)C(=O)N[C@@H](CC(=O)O)C(=O)N[C@@H](CC(=O)O)C(=O)N[C@@H](CC(=O)O)C(=O)N[C@@H](CC(=O)O)C(=O)N[C@@H](CCCCN)C(N)=O)NC(=O)[C@H](Cc2ccccc2)NC(=O)[C@@H]2CCCN2C(=O)[C@H](Cc2c[nH]c3ccccc23)NC(=O)[C@H](CC(C)C)NC(=O)[C@H](CC(C)C)NC(=O)[C@H](CC(=O)O)NC(=O)[C@H](Cc2ccccc2)NC(=O)[C@H](Cc2c[nH]cn2)NC(=O)[C@H]([C@@H](C)O)NC(=O)[C@H](Cc2ccccc2)NC1=O | human plasma | 5 h, 37 °C | plasma stability | stable |
| Clc1ccc(C(c2ccccc2Cl)C(Cl)Cl)cc1 (stereo not drawn) | human |  | plasma trough concentration | 16 mg/L |
| CC[C@H](C)CCCCC(=O)N[C@@H](CCN)C(=O)N[C@H](C(=O)N[C@@H](CCN)C(=O)N[C@H]1CCNC(=O)[C@H]([C@@H](C)O)NC(=O)[C@H](CCN)NC(=O)[C@H](CCN)NC(=O)[C@H](CC(C)C)NC(=O)[C@@H](Cc2ccccc2)NC(=O)[C@H](CCN)NC1=O)[C@@H](C)O | critically ill patients, plasma | intravenous, dose not given, 6 h, steady state, Moderate AUC group, median | plasma concentration at 6 h | 2300 ng/mL |
| CC(c1cncnc1)n1c(=S)[nH]c2ccc(Cl)cc2c1=O (stereo not drawn) | mouse plasma | concentration not given | plasma stability | 95 to 98.7% |
| CNc1cc[n+](CC(=O)Nc2ccc3c(c2)ncn3-c2c(C)noc2C)cc1.O=C[O-] | rat plasma |  | plasma stability | stable |
| O=C(O)Cc1ccccc1 | human plasma | median, both sexes | plasma concentration | 11.2 µM |
| N#C[C@@]1(n2ccc(N)nc2=O)O[C@H](CO)[C@@H](O)[C@H]1O | human plasma | 10 µM, 37 °C | plasma stability time | ≥ 2 h |
| C=C(C)[C@@H]1CC[C@]2(C(=O)OC)CC[C@]3(C)[C@H](CC[C@@H]4[C@@]5(C)CC[C@H](O[C@@H]6O[C@H](CO)[C@@H](O[C@@H]7O[C@@H](C)[C@H](O)[C@@H](O)[C@H]7O)[C@H](O)[C@H]6O[C@@H]6O[C@@H](C)[C@H](O)[C@@H](O)[C@H]6O)C(C)(C)[C@@H]5CC[C@]43C)[C@@H]12 | mouse plasma |  | plasma stability | unstable |
| CSCC[C@H](NC(=O)COCCOCCNC(=O)COCCOCCNC(=O)CC[C@H](NC(=O)CCCCCCCCCCCCCCCCC(=O)O)C(=O)O)C(=O)N[C@H]1CSSC[C@@H](C(=O)NCC(=O)N[C@@H](CO)C(=O)NCC(=O)N[C@@H](CO)C(=O)N[C@@H](CC(=O)O)C(=O)N[C@@H](Cc2ccc(O)cc2)C(=O)N[C@@H](CCCCN)C(=O)N[C@@H](CC(=O)O)C(=O)N[C@@H](CC(=O)O)C(=O)N[C@@H](CC(=O)O)C(=O)N[C@@H](CC(=O)O)C(=O)N[C@@H](CCCCN)C(N)=O)NC(=O)[C@H](Cc2ccccc2)NC(=O)[C@@H]2CCCN2C(=O)[C@H](Cc2c[nH]c3ccccc23)NC(=O)[C@H](CC(C)C)NC(=O)[C@H](CCSC)NC(=O)[C@H](Cc2c[nH]cn2)NC(=O)[C@H](Cc2ccccc2)NC(=O)[C@H](Cc2c[nH]cn2)NC(=O)[C@H]([C@@H](C)O)NC(=O)[C@H](Cc2ccccc2)NC1=O | human plasma | 5 h, 37 °C | plasma stability | stable |
| CC(=O)c1c(C)c2cnc(Nc3ccc(C4CCN(CCS(C)(=O)=O)CC4)cn3)nc2n(C2CCCC2)c1=O | rat plasma |  | plasma stability t1/2 | > 6.67 h |

A few entries again:
| Compound | system | setting | measurement | result |
| --- | --- | --- | --- | --- |
| CC[C@H](C)CCCCC(=O)N[C@@H](CCN)C(=O)N[C@H](C(=O)N[C@@H](CCN)C(=O)N[C@H]1CCNC(=O)[C@H]([C@@H](C)O)NC(=O)[C@H](CCN)NC(=O)[C@H](CCN)NC(=O)[C@H](CC(C)C)NC(=O)[C@@H](Cc2ccccc2)NC(=O)[C@H](CCN)NC1=O)[C@@H](C)O | critically ill patients, plasma | intravenous, dose not given, 6 h, steady state, Moderate AUC group, median | plasma concentration at 6 h | 2300 ng/mL |
| CC(c1cncnc1)n1c(=S)[nH]c2ccc(Cl)cc2c1=O (stereo not drawn) | mouse plasma | concentration not given | plasma stability | 95 to 98.7% |
